{"data": "Measured values collected from several papers", "note": "Protocols differ between the studies behind these lines. ± marks the error that the study gave."}
{"Compound": "C[C@H]1[C@H](OC(=O)CCC(=O)O)O[C@@H]2O[C@@]3(C)CC[C@H]4[C@H](C)CC[C@@H]1[C@@]24OO3", "system": "human, both sexes, plasma", "conditions": "oral, dose not given, non-fixed combination", "AUC(0-t)": "186 ng·h/mL"}
{"Compound": "Cc1cc(-c2nnc(N)nc2-c2ccc(F)cc2)cc(Cl)n1", "system": "human patients, plasma", "conditions": "oral, 200 mg capsule once daily, multiple doses, arithmetic mean", "AUC(0-t)": "9970 ng·h/mL"}
{"Compound": "CC(=O)c1ccc([C@H]2C[C@@]3(C)[C@@H](CC[C@@]3(O)C(F)(F)C(F)(F)F)[C@@H]3CCC4=CC(=O)CCC4=C32)cc1", "system": "human, pooled serum", "conditions": "oral, 200 mg single dose, 0 to 24 h", "AUC(0-t)": "230 ng·h/mL"}
{"Compound": "CNC(=O)c1c(C)oc2cc(Oc3ncnc4cc(OC)c(OC)cc34)ccc12", "system": "healthy human subjects, plasma", "conditions": "oral, 5 mg, arithmetic mean, together with: dabigatran etexilate 150 mg", "AUC(0-t)": "5200 ng·h/mL"}
{"Compound": "COC(=O)N[C@@H](C)CNc1nccc(-c2cn(C(C)C)nc2-c2cc(Cl)cc(NS(C)(=O)=O)c2F)n1", "system": "human patients, plasma", "conditions": "oral, 450 mg twice daily, day 14, steady state, geometric mean, together with: binimetinib 45 mg once daily", "AUC(0-t)": "12700 ng·h/mL"}
{"Compound": "CN1CCC(COc2cnc(-c3cccc(Cn4nc(-c5cccc(C#N)c5)ccc4=O)c3)nc2)CC1", "system": "human", "conditions": "500 mg, day 1, alone, geometric mean", "AUC(0-t)": "24100 ng·h/mL"}
{"Compound": "C[C@H]1CN(C(=O)CC#N)[C@]12CCN(c1ncnc3[nH]ccc13)C2", "system": "healthy human, plasma", "conditions": "oral, 3 mg single, geometric mean", "AUC(0-t)": "55.8 ng·h/mL"}
{"Compound": "CNC(=O)n1ccc2cc(Oc3ccnc(NC(=O)c4ccc(C5CCN(CCO)CC5)cc4)c3)c(OCCOC)cc21", "system": "healthy human, plasma", "conditions": "oral, 35 mg, high-fat meal", "AUC(0-t)": "98.4 ng·h/mL"}
{"Compound": "NC1(C(=O)N[C@@H](CCO)c2ccc(Cl)cc2)CCN(c2nc[nH]c3nccc2-3)CC1", "system": "human patients, plasma", "conditions": "dose not given, cohort 160/400, cycle 0, geometric mean", "AUC(0-t)": "5030 ng·h/mL"}
{"Compound": "CN(CC#N)C(=O)C[C@H](Nc1nc2ccccc2[nH]1)c1cccc(C(F)(F)F)c1", "system": "human", "conditions": "intravenous infusion, 1.5 mg/kg, 1 mg/mL formulation", "AUC(0-t)": "7290 ± 1570 ng·h/mL"}
{"Compound": "O=C(O)CCC(=O)O.[2H]C([2H])([2H])Oc1cc(C)c2[nH]ccc2c1CN1CC[C@@H](C2CC2)C[C@H]1c1ccc(C(=O)O)cc1", "test": "LC-MS/MS, geometric mean", "system": "human, plasma", "conditions": "600 mg, single dose, fasting", "AUC(0-t)": "235000 ng·h/mL"}
{"Compound": "COc1ccc([C@@H](O)c2cc(-c3ncnc4cc(N5CCOCC5)ccc34)c(F)cc2Cl)nn1", "system": "healthy human volunteers, plasma", "conditions": "oral, 100 mg single dose, tablet, fed high-fat, geometric mean", "AUC(0-t)": "1250 ng·h/mL"}
{"Compound": "Cc1ccc(=O)n(-c2ccccc2)c1", "system": "healthy human", "conditions": "oral, 600 mg single, alone", "scale": "arithmetic mean", "AUC(0-t)": "41800 ng·h/mL"}
{"Compound": "CO[C@H]1C[C@@H]2CC[C@@H](C)[C@@](O)(O2)C(=O)C(=O)N2CCCC[C@H]2C(=O)O[C@H]([C@H](C)C[C@@H]2CC[C@@H](OC(=O)NCCOCCOCCOCCOCCOCCOCCOCCOCCC(=O)N3CCc4cc(Cn5nc(-c6ccc7oc(N)nc7c6)c6c(N)ncnc65)ccc4C3)[C@H](OC)C2)C[C@@H](O)[C@H](C)/C=C(\\C)[C@@H](O)[C@@H](OC)C(=O)[C@H](C)C[C@H](C)/C=C/C=C/C=C/1C", "system": "human, plasma", "conditions": "intravenous, 6 mg, cycle 1 day 15, arithmetic mean", "AUC(0-t)": "441 ng·h/mL"}
{"Compound": "CO[C@@H]1[C@H](OC(=O)N2CC(CCN3CCOCC3)C2)CC[C@]2(CO2)[C@H]1[C@@]1(C)O[C@@H]1CC=C(C)C", "system": "humans, plasma", "conditions": "subcutaneous, 0.2 mg twice weekly, first dose", "AUC(0-t)": "0.1 ± 0.06 ng·h/mL"}
{"Compound": "COc1cc(-c2cnc3cc(OCCN4CCOCC4)ccn23)cc2c1C(=O)N(CC(F)(F)F)CC2", "test": "LC-MS", "system": "human, plasma", "conditions": "oral, 350 mg, day 5, together with: methotrexate 7.5 mg", "AUC(0-t)": "7660 ng·h/mL"}
{"Compound": "Cc1cc(C)c(CNC(=O)c2cc(Cl)c3c(c2C)O[C@@](C)([C@H]2CC[C@H](N(C)C)CC2)O3)c(=O)[nH]1", "system": "human, plasma", "conditions": "oral, 200 mg [14C] single dose, 24 h", "AUC(0-t)": "12000 ng·h/mL"}
{"Compound": "Cc1[nH]c(/C=C2\\C(=O)Nc3ccc(F)cc32)c(C)c1C(=O)N[C@H]1CCN(C(=O)N(C)C)C1", "system": "human patients, plasma", "conditions": "oral, 150 mg single dose, together with: everolimus 5 mg", "AUC(0-t)": "4420 ± 2760 ng·h/mL"}
{"Compound": "CC(C)n1c(Nc2cccnc2)nc2cnc(Nc3ccc(N4CCN(C)CC4)cc3)nc21", "test": "LC-MS/MS", "system": "human, male, plasma", "conditions": "oral, 100 mg, day 1, single dose, given alone", "AUC(0-t)": "858 ng·h/mL"}
{"Compound": "Cn1cc(-c2cn3nccc3c(-c3cnn([C@]4(CC#N)C[C@@H](C#N)C4)c3)n2)cn1", "system": "healthy humans fasted, plasma", "conditions": "10 mg single dose, geometric mean", "AUC(0-t)": "355 ng·h/mL"}
{"Compound": "C=CCn1c(=O)c2cnc(Nc3ccc(N4CCN(C)CC4)cc3)nc2n1-c1cccc(C(C)(C)O)n1", "system": "human", "conditions": "oral, 250 mg once daily, monotherapy lead-in, -5 days", "scale": "geometric mean", "AUC(0-t)": "6.52 µM·h"}
{"Compound": "CCCOc1ccc(NC(=O)CN2CCN(C)CC2)cc1-c1nc(CC)c(CC)c(=O)[nH]1", "system": "human, fasting, plasma", "conditions": "oral, 10 mg, together with: alcohol 0.5 g/kg", "AUC(0-t)": "570 ± 80.4 ng·h/mL"}
{"Compound": "CCN(CC)Cc1cc(Nc2ccnc3cc(Cl)ccc23)ccc1O", "system": "human, both sexes, plasma", "conditions": "oral, dose not given, non-fixed combination", "AUC(0-t)": "151 ng·h/mL"}
{"Compound": "CO[C@H]1CC[C@H](N2C(=O)CNc3ncc(-c4ccc(C(C)(C)O)nc4)nc32)CC1", "system": "human, plasma", "conditions": "oral, 15 mg, day -1, geometric mean", "AUC(0-t)": "347 ng·h/mL"}
{"Compound": "C#C[C@]1(CO)O[C@@H](n2cnc3c(N)nc(F)nc32)C[C@@H]1O", "system": "human, plasma", "conditions": "oral, 200 mg, single dose, geometric mean", "AUC(0-t)": "21.7 µM·h"}
{"Compound": "CN[C@@H](C)C(=O)N[C@H]1CN(S(=O)(=O)c2cccc(S(=O)(=O)N3CC[C@H]4CC[C@@H](C(=O)NC(c5ccccc5)c5ccccc5)N4C(=O)[C@@H](NC(=O)[C@H](C)NC)C3)c2)CC[C@H]2CC[C@@H](C(=O)NC(c3ccccc3)c3ccccc3)N2C1=O", "test": "LC-MS/MS, noncompartmental", "system": "human, plasma", "conditions": "45 mg, cycle 1 day 1", "AUC(0-t)": "1320 ± 893 ng·h/mL"}
{"Compound": "C=CC(=O)N(C)CCOc1c(N)ncnc1-c1cc(F)cc(NC(=O)c2ccc(C3CC3)cc2F)c1C", "system": "human, whole blood", "conditions": "oral, 5 mg, single ascending dose", "AUC(0-t)": "2.77 ng·h/mL"}
{"Compound": "Cl.[2H]C([2H])([2H])CC(=O)c1cnc(NC(=O)C2CC2)cc1Nc1cccc(-c2ncn(C([2H])([2H])[2H])n2)c1OC", "test": "geometric mean", "system": "human", "conditions": "oral, 100 mg single dose, fasted, liquid", "AUC(0-t)": "11100 ng·h/mL"}
{"Compound": "CCN1CCN(Cc2ccc(Nc3ncc(F)c(-c4cc(F)c5nc6n(c5c4)[C@H](C)CCC6)n3)nc2)CC1", "system": "human, plasma", "conditions": "100 mg single dose, mean", "AUC(0-t)": "4620 ng·h/mL"}
{"Compound": "NC[C@@]1(CC(=O)O)[C@@H]2CC[C@H]3C[C@@H]2[C@@H]1C3", "system": "human, normal renal function, plasma", "conditions": "dose not given, geometric least squares mean", "AUC(0-t)": "1730 ng·h/mL"}
{"Compound": "CC(=O)N1CCC(Nc2cc(C(=O)NC[C@H](O)CN3CCc4ccccc4C3)ncn2)CC1", "system": "human, plasma", "conditions": "oral, 300 mg, week 3 day 1, geometric mean", "AUC(0-t)": "5650 ng·h/mL"}
{"Compound": "N#CN1C[C@H](n2nc(-c3ccc(Oc4ccc(Cl)cn4)cc3)c(C(N)=O)c2N)CCC12CC2", "system": "human, fasted, plasma", "conditions": "oral, 600 mg", "AUC(0-t)": "21200 ± 7480 ng·h/mL"}
{"Compound": "C=CC(=O)N1C[C@H](Nc2ncnc3[nH]ccc23)CC[C@@H]1C", "system": "human, plasma", "conditions": "oral, 50 mg single dose, alone without rifampicin", "AUC(0-t)": "448 ng·h/mL"}
{"Compound": "Cc1cc(C)c(CNC(=O)c2cc(Cl)c3c(c2C)O[C@@](C)([C@H]2CC[C@H](N(C)C)CC2)O3)c(=O)[nH]1", "test": "mean", "system": "healthy male humans, plasma", "conditions": "oral, 25 mg, day 12, together with: fluconazole", "AUC(0-t)": "1070 ng·h/mL"}
{"Compound": "CC[C@H](C)[C@@H]([C@@H](CC(=O)N1CCC[C@H]1[C@H](OC)[C@@H](C)C(=O)N[C@@H](Cc1ccccc1)C(=O)NCCCO)OC)N(C)C(=O)[C@@H](NC(=O)[C@H](C(C)C)N(C)C)C(C)C", "system": "human patients, plasma", "conditions": "intravenous, 43 mg/m², cycle 1 geometric mean", "AUC(0-t)": "2100 ng·h/mL"}
{"Compound": "CN(C(=O)C(C)(C)c1cc(C(F)(F)F)cc(C(F)(F)F)c1)c1cnc(N2C[C@H]3COCCN3C[C@H]2CO)cc1-c1ccc(F)cc1[14CH3]", "test": "item: total radioactivity", "system": "human, whole blood", "conditions": "oral, 120 mg", "AUC(0-t)": "4160 ng equiv·h/mL"}
{"Compound": "CC(=O)O[C@H]1C(=O)[C@@]2(C)[C@H]([C@H](OC(=O)c3ccccc3)[C@]3(O)C[C@H](OC(=O)[C@H](O)[C@@H](NC(=O)c4ccccc4)c4ccccc4)C(C)=C1C3(C)C)[C@]1(OC(C)=O)CO[C@@H]1C[C@@H]2O", "system": "human, plasma", "conditions": "intravenous infusion, 80 mg/m^2, day 5, with oral co-drug daily", "AUC(0-t)": "4480 ng·h/mL"}
{"Compound": "CNC(=O)c1ccc(-c2cnc3ncc(Cc4ccc5ncccc5c4)n3n2)cc1F", "system": "human severe hepatic impairment NCI", "conditions": "oral, 200 mg single dose, geometric mean", "AUC(0-t)": "5300 ng·h/mL"}
